{"data": "Assay results pooled from the literature", "note": "Parts stem from different laboratories: compare values within a part only.", "sequence of UniProt O75582 (whole entry, looked up)": "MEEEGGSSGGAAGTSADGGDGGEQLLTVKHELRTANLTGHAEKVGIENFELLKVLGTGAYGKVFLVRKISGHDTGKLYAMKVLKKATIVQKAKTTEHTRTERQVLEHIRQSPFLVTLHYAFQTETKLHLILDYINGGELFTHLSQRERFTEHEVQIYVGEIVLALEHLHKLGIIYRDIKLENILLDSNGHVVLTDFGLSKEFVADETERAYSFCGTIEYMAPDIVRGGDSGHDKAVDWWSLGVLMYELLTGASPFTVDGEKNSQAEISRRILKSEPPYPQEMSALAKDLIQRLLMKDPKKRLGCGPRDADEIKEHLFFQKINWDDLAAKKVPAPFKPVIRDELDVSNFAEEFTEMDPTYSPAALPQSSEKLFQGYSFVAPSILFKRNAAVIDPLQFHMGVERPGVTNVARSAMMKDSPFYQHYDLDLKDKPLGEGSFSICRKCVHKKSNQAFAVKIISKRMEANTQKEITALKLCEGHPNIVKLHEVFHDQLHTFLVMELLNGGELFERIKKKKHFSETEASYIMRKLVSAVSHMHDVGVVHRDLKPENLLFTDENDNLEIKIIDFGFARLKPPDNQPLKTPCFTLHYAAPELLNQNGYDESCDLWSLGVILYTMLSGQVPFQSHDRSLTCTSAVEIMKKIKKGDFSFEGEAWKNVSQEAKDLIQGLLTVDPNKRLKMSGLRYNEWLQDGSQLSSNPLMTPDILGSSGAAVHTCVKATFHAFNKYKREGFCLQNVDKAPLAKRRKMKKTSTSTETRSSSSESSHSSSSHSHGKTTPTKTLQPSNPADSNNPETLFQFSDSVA", "sequence of UniProt Q9Y2U5 (whole entry, looked up)": "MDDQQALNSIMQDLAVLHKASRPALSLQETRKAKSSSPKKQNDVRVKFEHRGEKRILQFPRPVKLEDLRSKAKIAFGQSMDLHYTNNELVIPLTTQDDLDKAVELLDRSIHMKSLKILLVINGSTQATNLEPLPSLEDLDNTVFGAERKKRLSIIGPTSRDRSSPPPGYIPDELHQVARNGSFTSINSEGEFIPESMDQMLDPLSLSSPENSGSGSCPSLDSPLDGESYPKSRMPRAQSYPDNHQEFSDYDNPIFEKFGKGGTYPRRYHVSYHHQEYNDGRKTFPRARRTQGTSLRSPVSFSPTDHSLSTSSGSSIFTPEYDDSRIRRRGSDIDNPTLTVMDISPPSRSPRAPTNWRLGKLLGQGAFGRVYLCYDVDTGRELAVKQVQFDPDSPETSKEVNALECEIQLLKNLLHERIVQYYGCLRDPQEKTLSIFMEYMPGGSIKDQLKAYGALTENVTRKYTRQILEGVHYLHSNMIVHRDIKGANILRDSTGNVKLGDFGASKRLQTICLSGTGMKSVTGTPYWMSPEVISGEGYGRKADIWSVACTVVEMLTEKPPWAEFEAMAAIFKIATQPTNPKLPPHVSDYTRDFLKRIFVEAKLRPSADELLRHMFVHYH", "sequence of UniProt O14936 (whole entry, looked up)": "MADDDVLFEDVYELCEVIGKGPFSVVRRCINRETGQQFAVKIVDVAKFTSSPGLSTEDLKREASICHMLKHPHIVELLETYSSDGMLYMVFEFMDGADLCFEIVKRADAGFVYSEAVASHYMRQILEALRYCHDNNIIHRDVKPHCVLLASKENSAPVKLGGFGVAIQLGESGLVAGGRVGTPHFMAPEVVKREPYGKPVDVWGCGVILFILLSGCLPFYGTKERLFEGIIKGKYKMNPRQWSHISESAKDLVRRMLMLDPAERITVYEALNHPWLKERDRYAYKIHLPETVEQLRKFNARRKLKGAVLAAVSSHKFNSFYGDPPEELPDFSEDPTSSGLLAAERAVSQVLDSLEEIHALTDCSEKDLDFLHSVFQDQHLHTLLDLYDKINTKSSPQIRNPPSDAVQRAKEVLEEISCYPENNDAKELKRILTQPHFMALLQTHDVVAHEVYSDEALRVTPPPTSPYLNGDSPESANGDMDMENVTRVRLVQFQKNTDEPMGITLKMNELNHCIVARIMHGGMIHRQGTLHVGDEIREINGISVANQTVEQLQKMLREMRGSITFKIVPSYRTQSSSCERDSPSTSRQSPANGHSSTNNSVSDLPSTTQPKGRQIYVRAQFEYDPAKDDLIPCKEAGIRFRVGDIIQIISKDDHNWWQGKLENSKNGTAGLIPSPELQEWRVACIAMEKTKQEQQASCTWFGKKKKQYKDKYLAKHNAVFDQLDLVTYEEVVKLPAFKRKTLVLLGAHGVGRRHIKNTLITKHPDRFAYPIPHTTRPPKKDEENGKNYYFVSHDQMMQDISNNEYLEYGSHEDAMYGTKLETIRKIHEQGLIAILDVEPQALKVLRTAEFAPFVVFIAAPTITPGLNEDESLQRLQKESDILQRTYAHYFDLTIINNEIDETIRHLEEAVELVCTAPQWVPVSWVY", "sequence of UniProt Q8WTQ7 (whole entry, looked up)": "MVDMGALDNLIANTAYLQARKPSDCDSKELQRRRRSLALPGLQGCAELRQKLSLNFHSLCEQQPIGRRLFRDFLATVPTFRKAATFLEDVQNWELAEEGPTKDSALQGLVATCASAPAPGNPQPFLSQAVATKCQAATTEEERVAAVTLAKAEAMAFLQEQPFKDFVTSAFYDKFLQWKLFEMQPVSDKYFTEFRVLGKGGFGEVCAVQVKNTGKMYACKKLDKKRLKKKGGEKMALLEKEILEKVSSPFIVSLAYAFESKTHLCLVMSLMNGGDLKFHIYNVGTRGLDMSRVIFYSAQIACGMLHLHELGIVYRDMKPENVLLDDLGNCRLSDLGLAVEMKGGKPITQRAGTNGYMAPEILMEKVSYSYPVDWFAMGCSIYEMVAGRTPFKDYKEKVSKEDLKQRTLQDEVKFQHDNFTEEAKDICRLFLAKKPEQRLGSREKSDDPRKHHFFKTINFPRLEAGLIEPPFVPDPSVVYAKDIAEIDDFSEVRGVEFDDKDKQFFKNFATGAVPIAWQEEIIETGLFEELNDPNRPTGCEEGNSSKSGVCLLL", "sequence of UniProt P42336 (whole entry, looked up)": "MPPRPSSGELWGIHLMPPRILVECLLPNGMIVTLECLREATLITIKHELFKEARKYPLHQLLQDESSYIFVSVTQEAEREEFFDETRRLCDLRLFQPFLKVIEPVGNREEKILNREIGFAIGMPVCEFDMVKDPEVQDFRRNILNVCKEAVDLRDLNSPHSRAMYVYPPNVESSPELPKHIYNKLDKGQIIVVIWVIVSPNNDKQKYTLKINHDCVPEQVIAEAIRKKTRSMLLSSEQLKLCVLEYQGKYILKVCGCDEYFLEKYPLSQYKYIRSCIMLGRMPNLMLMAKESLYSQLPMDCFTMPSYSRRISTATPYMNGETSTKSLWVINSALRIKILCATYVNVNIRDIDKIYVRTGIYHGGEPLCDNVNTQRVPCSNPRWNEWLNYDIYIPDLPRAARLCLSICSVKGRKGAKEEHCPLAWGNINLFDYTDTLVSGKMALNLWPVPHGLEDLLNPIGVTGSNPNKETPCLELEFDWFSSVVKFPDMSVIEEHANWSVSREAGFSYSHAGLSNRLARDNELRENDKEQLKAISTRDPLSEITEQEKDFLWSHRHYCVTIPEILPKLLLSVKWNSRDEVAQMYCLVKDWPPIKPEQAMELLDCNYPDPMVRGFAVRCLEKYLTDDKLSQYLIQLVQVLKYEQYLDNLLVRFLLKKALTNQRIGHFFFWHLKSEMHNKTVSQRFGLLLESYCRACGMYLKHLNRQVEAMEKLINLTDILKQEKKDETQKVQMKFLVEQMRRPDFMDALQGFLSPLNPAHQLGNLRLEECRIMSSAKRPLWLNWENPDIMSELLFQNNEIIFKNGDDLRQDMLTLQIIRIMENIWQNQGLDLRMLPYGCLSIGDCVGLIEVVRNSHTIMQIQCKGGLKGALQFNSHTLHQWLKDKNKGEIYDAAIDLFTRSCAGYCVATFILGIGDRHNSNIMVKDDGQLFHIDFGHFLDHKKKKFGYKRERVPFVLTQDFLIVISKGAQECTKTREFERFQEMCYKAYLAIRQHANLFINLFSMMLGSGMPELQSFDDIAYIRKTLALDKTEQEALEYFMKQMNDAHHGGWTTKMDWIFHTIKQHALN"}
{"data": "Set 1", "target": "Calcium/calmodulin-dependent protein kinase type II subunit beta (CAMK2B, Homo sapiens, UniProt Q13554)", "read-out": "enzyme activity", "action": "inhibitor", "tested at": "0.5 µM", "relative to": "control", "sequence of UniProt Q13554 (whole entry, looked up)": "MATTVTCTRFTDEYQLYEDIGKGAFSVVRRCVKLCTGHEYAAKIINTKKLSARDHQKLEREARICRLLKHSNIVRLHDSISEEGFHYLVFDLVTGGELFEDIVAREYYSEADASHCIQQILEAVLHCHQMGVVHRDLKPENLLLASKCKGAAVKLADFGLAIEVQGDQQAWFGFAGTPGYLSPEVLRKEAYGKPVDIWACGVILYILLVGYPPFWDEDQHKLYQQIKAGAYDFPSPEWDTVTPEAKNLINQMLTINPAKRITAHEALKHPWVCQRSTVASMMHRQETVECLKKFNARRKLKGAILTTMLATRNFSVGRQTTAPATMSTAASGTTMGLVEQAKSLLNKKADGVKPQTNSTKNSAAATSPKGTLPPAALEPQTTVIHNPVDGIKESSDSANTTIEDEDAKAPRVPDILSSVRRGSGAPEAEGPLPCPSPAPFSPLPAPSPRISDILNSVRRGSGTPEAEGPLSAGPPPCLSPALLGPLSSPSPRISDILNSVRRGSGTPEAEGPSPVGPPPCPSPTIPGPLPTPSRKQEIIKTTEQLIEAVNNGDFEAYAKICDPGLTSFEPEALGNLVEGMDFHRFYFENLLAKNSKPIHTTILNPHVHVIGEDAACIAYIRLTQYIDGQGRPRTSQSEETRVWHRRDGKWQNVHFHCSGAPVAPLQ"}
{"Compound": "O=C1C(Cl)=C(N2C(=O)CCC2=O)C(=O)c2ccccc21", "remaining activity": "106%"}
{"Compound": "COc1cc2ncnc(Nc3cccc(Cl)c3)c2cc1OC", "remaining activity": "91.2%"}
{"Compound": "O=C(Nc1cccc(Nc2nccc(Nc3cccc(C(F)(F)F)c3)n2)c1)C1CC1", "remaining activity": "102%"}
{"Compound": "CCN(CC)C(=O)c1ccc(Nc2nc(OCC3CCCCC3)c3[nH]cnc3n2)cc1", "remaining activity": "97.6%"}
{"Compound": "c1ccc(-c2[nH]ncc2-c2ccnc3ccccc23)nc1", "remaining activity": "97.2%"}
{"Compound": "N#Cc1c(NC(=O)c2cccc3ccccc23)sc2c1CCCC2", "remaining activity": "101%"}
{"Compound": "COc1cc2c(cc1OC)-c1[nH]nc(Nc3cccc(F)c3)c1C2", "remaining activity": "101%"}
{"Compound": "CCN(CC)CCNC(=O)c1c(C)[nH]c(/C=C2\\C(=O)Nc3ccc(F)cc32)c1C", "remaining activity": "46.7%"}
{"Compound": "Cn1nc2c3c(cccc31)C(=O)c1ccccc1-2", "remaining activity": "95.3%"}
{"Compound": "N#C/C(=C\\c1ccc(O)c(O)c1)C(=O)NCc1ccccc1", "remaining activity": "102%"}
{"Compound": "Cc1nc2cc3nc(-c4cccs4)cnc3cc2n1C", "remaining activity": "101%"}
{"Compound": "COc1cc2ncnc(Nc3ccc(O)c(Br)c3)c2cc1OC", "remaining activity": "99.3%"}
{"Compound": "Ic1cccc(CSc2nnc(-c3ccncc3)o2)c1", "remaining activity": "95.4%"}
{"Compound": "c1ccc(-c2cnc(Nc3ccc(OCCN4CCCC4)cc3)s2)cc1", "remaining activity": "84.2%"}
{"Compound": "Cc1cc2ncc(-c3ccccc3)nc2cc1C", "remaining activity": "101%"}
{"Compound": "CN([C@@H](Cc1ccc(OS(=O)(=O)c2cccc3cnccc23)cc1)C(=O)N1CCN(c2ccccc2)CC1)S(=O)(=O)c1cccc2cnccc12", "remaining activity": "97.8%"}
{"Compound": "CN(C)C[C@H]1CCn2c(c(C3=C(c4cn(C)c5ccccc45)C(=O)NC3=O)c3ccccc32)C1", "remaining activity": "96.9%"}
{"Compound": "O=C(NC(NC(=S)Nc1ccc(F)c([N+](=O)[O-])c1)C(Cl)(Cl)Cl)C(c1ccccc1)c1ccccc1 (stereo not shown)", "remaining activity": "104%"}
{"Compound": "Cc1cn(-c2cc(NC(=O)c3ccc(C)c(Nc4nccc(-c5cccnc5)n4)c3)cc(C(F)(F)F)c2)cn1", "remaining activity": "95%"}
{"data": "Set 2", "target": "TAR DNA-binding protein 43, full length, His tag (TARDBP, Homo sapiens, UniProt Q13148, residues 1-414)", "technique": "RNA Bind-n-Seq", "molecule type": "RNA", "medium": "in vitro", "tested at": "20 nM", "setting": "6-mer, flanks averaged, single round", "added": "150 mM KCl", "relative to": "input library", "reading": "higher = stronger binding"}
{"Sequence": "CGUAGA", "6-mer enrichment (R)": 0.807}
{"Sequence": "CAUUCU", "6-mer enrichment (R)": 0.551}
{"Sequence": "CUAGGA", "6-mer enrichment (R)": 0.821}
{"Sequence": "UAGUCC", "6-mer enrichment (R)": 0.604}
{"Sequence": "CGACGA", "6-mer enrichment (R)": 0.844}
{"Sequence": "CCCUUG", "6-mer enrichment (R)": 0.748}
{"Sequence": "CACGGC", "6-mer enrichment (R)": 0.917}
{"Sequence": "UCAACC", "6-mer enrichment (R)": 0.57}
{"data": "Set 3", "target": "Eukaryotic initiation factor 4A-I (EIF4A1, Homo sapiens, UniProt P60842, residues 1-406, full length assumed)", "technique": "RNA Bind-n-Seq", "molecule type": "RNA", "medium": "in vitro", "tested at": "15 pmol", "setting": "4-mer, random 30-nt RNA, single round", "added": "3 µM RocA, 2 mM AMP-PNP", "relative to": "mean of 4-mers", "reading": "higher = stronger binding", "sequence of UniProt P60842 (whole entry, looked up)": "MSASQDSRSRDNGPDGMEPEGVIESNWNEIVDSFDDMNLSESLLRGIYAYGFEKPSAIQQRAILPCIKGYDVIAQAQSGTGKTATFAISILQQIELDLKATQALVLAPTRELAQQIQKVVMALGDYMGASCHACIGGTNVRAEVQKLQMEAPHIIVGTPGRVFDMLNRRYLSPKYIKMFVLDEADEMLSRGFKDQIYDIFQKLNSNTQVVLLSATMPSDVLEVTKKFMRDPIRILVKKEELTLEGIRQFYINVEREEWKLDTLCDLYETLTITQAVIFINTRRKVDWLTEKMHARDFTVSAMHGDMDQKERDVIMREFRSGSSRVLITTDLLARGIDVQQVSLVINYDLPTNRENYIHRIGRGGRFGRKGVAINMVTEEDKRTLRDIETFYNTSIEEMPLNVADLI"}
{"Sequence": "CCCC", "4-mer enrichment Z-score": -0.927}
{"Sequence": "GUUA", "4-mer enrichment Z-score": 0.369}
{"Sequence": "GCCU", "4-mer enrichment Z-score": -0.802}
{"Sequence": "AACA", "4-mer enrichment Z-score": -0.61}
{"Sequence": "AUAG", "4-mer enrichment Z-score": 0.595}
{"Sequence": "GACC", "4-mer enrichment Z-score": -0.78}
{"Sequence": "GAUG", "4-mer enrichment Z-score": 1.24}
{"Sequence": "GGGU", "4-mer enrichment Z-score": 1.81}
{"data": "Set 4", "SMILES": "Cc1nccc(COC(=O)N2C[C@@H]3[C@@H](CNC(=O)c4ccc5[nH]nnc5c4)[C@@H]3C2)n1", "read-out": "cell-free assay", "technique": "competition with immobilised ligand", "tested at": "1 µM"}
{"target": "MTOR (Homo sapiens, UniProt P42345)", "remaining binding [%]": 96}
{"target": "CSK (Homo sapiens, UniProt P41240)", "remaining binding [%]": 99}
{"target": "CASK (Homo sapiens, UniProt O14936)", "remaining binding [%]": 72}
{"target": "RET (Homo sapiens, UniProt P07949)", "remaining binding [%]": 93}
{"target": "FYN (Homo sapiens, UniProt P06241)", "remaining binding [%]": 100}
{"target": "MAP3K13 (Homo sapiens, UniProt O43283)", "remaining binding [%]": 65}
{"target": "MST1R (Homo sapiens, UniProt Q04912)", "remaining binding [%]": 100}
{"target": "TIE1 (Homo sapiens, UniProt P35590)", "remaining binding [%]": 100}
{"target": "AKT3 (Homo sapiens, UniProt Q9Y243)", "remaining binding [%]": 100}
{"target": "PIK3CA (Homo sapiens, UniProt P42336)", "remaining binding [%]": 92}
{"target": "MAP3K2 (Homo sapiens, UniProt Q9Y2U5)", "remaining binding [%]": 100}
{"target": "NUAK2 (Homo sapiens, UniProt Q9H093)", "remaining binding [%]": 100}
{"target": "MAP3K10 (Homo sapiens, UniProt Q02779)", "remaining binding [%]": 85}
{"target": "STK25 (Homo sapiens, UniProt O00506)", "remaining binding [%]": 100}
{"target": "GRK7 (Homo sapiens, UniProt Q8WTQ7)", "remaining binding [%]": 88}
{"target": "TSSK1B (Homo sapiens, UniProt Q9BXA7)", "remaining binding [%]": 91}
{"target": "Ribosomal protein S6 kinase alpha-5, N-terminal kinase domain (RPS6KA5, Homo sapiens, UniProt O75582)", "remaining binding [%]": 95}
{"note": "Some of these lines once more (set 2):"}
{"Sequence": "CUAGGA", "6-mer enrichment (R)": 0.821}
{"Sequence": "CACGGC", "6-mer enrichment (R)": 0.917}
{"Sequence": "CGUAGA", "6-mer enrichment (R)": 0.807}
{"Sequence": "CGACGA", "6-mer enrichment (R)": 0.844}
{"Sequence": "UAGUCC", "6-mer enrichment (R)": 0.604}
{"Sequence": "CAUUCU", "6-mer enrichment (R)": 0.551}
